Measurements collected from several papers.
Parts stem from different laboratories: compare values within a part only.
Chain of UniProt P07949 (whole entry, unmodified, looked up): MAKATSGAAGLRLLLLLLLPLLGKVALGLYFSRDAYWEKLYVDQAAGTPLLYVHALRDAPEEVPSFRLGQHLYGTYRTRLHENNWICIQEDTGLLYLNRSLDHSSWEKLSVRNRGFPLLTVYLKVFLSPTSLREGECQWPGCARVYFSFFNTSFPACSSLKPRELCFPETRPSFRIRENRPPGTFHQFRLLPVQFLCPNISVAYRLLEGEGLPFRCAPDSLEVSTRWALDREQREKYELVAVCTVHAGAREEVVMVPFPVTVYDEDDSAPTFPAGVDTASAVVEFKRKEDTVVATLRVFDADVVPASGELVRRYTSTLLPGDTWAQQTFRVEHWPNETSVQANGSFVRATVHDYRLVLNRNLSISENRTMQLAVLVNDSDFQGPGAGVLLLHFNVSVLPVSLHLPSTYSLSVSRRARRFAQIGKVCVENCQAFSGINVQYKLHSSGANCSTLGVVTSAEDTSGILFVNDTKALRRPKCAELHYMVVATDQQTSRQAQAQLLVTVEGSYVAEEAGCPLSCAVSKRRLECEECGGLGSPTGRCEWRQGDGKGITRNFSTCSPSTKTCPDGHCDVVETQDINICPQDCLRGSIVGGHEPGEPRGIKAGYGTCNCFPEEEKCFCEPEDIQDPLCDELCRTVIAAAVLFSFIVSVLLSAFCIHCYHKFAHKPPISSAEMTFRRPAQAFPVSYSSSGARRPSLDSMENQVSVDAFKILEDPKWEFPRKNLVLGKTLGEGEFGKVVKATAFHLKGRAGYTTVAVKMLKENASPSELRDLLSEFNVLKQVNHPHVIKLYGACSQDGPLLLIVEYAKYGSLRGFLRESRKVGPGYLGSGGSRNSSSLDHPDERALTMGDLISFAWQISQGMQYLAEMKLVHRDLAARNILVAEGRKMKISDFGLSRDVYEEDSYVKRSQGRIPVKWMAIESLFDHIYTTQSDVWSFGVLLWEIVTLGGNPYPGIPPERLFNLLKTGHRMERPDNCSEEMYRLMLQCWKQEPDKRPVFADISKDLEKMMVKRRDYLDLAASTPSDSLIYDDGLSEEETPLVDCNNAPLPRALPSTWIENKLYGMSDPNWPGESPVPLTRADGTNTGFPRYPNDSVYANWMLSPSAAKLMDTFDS
Chain of UniProt P50613 (whole entry, looked up): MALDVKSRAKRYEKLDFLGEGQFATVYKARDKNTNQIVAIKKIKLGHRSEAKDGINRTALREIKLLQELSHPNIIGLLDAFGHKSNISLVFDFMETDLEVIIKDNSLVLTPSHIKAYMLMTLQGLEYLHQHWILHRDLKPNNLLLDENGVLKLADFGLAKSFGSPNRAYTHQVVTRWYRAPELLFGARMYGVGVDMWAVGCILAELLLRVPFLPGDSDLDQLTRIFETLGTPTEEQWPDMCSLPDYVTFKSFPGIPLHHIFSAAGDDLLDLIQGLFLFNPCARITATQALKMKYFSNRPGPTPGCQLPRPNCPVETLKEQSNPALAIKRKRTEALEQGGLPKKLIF
Chain of UniProt Q86Y07 (whole entry, looked up): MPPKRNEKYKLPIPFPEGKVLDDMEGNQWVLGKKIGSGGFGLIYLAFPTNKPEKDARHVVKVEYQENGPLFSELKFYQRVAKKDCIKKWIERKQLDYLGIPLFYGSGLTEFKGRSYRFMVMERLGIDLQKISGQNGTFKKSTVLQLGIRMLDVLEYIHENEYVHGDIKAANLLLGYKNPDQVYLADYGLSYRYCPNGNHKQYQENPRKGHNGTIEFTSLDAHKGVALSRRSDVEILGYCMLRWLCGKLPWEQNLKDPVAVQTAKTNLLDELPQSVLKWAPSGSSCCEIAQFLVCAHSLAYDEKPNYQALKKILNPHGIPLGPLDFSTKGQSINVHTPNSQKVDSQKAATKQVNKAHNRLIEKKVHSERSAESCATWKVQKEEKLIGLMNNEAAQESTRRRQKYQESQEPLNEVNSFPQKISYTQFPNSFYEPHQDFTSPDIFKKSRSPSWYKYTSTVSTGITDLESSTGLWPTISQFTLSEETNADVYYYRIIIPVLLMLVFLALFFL
Chain of UniProt P53779 (whole entry, looked up): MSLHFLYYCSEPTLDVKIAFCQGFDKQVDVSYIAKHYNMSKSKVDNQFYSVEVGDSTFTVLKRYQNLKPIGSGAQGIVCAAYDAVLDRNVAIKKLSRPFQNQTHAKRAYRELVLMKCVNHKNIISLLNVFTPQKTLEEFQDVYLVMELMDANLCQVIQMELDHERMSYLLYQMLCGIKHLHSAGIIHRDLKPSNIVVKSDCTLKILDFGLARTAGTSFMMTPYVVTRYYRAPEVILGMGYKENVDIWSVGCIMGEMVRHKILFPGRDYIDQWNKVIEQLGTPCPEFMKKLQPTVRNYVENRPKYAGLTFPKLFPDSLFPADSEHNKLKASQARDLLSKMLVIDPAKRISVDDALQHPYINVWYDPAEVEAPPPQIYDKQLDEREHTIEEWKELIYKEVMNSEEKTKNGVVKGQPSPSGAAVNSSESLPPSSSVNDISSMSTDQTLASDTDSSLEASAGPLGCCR
Chain of UniProt Q9NR20 (whole entry, looked up): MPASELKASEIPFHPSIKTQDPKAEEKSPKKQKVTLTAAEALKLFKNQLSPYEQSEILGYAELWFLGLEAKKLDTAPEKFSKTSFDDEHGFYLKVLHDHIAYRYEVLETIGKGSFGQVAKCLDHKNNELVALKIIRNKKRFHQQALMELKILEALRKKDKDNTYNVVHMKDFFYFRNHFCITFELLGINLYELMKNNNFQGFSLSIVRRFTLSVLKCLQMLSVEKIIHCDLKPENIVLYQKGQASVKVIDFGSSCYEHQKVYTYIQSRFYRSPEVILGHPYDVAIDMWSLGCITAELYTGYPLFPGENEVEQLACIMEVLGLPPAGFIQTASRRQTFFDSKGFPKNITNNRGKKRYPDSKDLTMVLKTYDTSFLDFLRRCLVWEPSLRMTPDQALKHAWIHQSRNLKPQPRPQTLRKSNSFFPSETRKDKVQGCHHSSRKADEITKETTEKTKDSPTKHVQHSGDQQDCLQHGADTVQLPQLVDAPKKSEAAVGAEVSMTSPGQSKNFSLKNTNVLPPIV
Chain of UniProt Q16513 (whole entry, looked up): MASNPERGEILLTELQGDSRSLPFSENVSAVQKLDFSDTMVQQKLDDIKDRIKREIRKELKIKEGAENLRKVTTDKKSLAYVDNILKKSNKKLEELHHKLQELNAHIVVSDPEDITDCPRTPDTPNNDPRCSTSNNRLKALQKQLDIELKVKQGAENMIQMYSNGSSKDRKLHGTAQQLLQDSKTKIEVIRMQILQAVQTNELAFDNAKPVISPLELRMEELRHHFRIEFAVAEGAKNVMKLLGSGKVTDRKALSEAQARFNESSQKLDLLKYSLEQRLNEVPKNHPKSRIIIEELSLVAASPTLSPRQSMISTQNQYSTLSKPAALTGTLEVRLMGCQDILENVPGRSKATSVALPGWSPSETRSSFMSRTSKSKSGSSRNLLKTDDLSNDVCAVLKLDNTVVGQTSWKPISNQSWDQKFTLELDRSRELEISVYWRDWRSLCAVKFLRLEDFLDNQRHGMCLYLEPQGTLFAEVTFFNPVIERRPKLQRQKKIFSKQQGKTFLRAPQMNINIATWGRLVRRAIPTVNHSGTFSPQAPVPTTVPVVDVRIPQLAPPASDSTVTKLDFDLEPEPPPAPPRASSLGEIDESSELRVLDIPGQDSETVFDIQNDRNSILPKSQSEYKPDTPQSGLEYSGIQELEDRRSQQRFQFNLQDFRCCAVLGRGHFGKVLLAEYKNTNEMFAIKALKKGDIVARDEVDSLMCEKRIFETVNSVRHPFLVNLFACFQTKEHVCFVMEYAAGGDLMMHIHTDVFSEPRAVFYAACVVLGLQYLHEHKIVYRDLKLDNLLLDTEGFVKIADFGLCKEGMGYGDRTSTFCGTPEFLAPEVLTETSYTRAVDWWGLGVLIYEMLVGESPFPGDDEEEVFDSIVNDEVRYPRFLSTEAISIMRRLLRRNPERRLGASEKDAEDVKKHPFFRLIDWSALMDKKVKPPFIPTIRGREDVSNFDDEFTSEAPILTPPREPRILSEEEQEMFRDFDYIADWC
Chain of UniProt Q9UPZ9 (whole entry, looked up): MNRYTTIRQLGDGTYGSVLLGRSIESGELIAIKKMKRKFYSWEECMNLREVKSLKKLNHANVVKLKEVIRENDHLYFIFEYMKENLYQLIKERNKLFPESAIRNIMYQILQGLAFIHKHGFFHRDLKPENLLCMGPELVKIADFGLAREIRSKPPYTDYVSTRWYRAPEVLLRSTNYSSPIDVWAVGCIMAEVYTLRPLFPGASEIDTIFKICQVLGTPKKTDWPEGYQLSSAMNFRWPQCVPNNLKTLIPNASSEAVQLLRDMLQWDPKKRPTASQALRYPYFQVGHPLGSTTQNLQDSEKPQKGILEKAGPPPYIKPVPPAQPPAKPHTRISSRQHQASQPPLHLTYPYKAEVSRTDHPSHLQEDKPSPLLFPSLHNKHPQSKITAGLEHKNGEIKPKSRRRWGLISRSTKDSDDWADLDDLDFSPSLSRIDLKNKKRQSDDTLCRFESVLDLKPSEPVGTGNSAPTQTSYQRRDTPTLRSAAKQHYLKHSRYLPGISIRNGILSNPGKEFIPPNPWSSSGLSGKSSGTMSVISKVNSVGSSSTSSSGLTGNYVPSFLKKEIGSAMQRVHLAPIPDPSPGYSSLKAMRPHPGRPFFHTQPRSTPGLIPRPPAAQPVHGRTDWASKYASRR

Series 1
SMILES: Fc1ccc(-c2nc3n(c2-c2ccncc2)CCS3)cc1
Effect on: enzyme activity
Action: inhibitor
Tested at: 0.5 µM
Relative to: control
It gave 96.3% for remaining activity (Serine/threonine-protein kinase N2 (PKN2, Homo sapiens, UniProt Q16513)).
Mitogen-activated protein kinase 10 (MAPK10, Homo sapiens, UniProt P53779) — remaining activity: 116%.
The remaining activity was 88.1% (Mitogen-activated protein kinase kinase kinase 8 (MAP3K8, Homo sapiens, UniProt P41279)).
It gave 102% for remaining activity (Myotonin-protein kinase (DMPK, Homo sapiens, UniProt Q09013)).
The remaining activity was 99.5% (Proto-oncogene tyrosine-protein kinase receptor Ret (RET, Homo sapiens, UniProt P07949)).
It gave 94% for remaining activity (Serine/threonine-protein kinase BRSK1 (BRSK1, Homo sapiens, UniProt Q8TDC3)).
The remaining activity was 106% (Dual specificity tyrosine-phosphorylation-regulated kinase 4 (DYRK4, Homo sapiens, UniProt Q9NR20)).
For Mitogen-activated protein kinase kinase kinase 2 (MAP3K2, Homo sapiens, UniProt Q9Y2U5): remaining activity read 99.8%.
For Cyclin-dependent kinase 7 (CDK7, Homo sapiens, UniProt P50613): remaining activity read 95%.
For Epidermal growth factor receptor (EGFR, Homo sapiens, UniProt P00533): remaining activity read 90.7%.

Series 2
SMILES: Cn1cc(Cl)c2c(Oc3c(F)cc(Nc4cc(Cl)nc(N)n4)cc3F)ccnc21
Tested at: 0.1 µM
It gave 89% for remaining binding (Tyrosine-protein kinase ABL1, non-phosphorylated (ABL1, Homo sapiens, UniProt P00519); cell-free assay, competition with immobilised ligand).
For Receptor-type tyrosine-protein kinase FLT3 (FLT3, Homo sapiens, UniProt P36888, R834Q); cell-free assay, competition with immobilised ligand: remaining binding read 83%.
For Receptor-interacting serine/threonine-protein kinase 2 (RIPK2, Homo sapiens, UniProt O43353); cell-free assay, competition with immobilised ligand: remaining binding read 83%.
For Proto-oncogene tyrosine-protein kinase receptor Ret (RET, Homo sapiens, UniProt P07949, V804L); cell-free assay, competition with immobilised ligand: remaining binding read 91%.
For AP2-associated protein kinase 1 (AAK1, Homo sapiens, UniProt Q2M2I8); binding: remaining binding read 100%.
For Ephrin type-B receptor 1 (EPHB1, Homo sapiens, UniProt P54762); cell-free assay, competition with immobilised ligand: remaining binding read 96%.
Cyclin-dependent kinase 4 (CDK4, Homo sapiens, UniProt P11802); cell-free assay, competition with immobilised ligand — remaining binding: 85%.
The remaining binding was 100% (Mitogen-activated protein kinase 15 (MAPK15, Homo sapiens, UniProt Q8TD08); cell-free assay, competition with immobilised ligand).
It gave 100% for remaining binding (Serine/threonine-protein kinase TAO2 (TAOK2, Homo sapiens, UniProt Q9UL54); cell-free assay, competition with immobilised ligand).
It gave 87% for remaining binding (Ribosomal protein S6 kinase alpha-4, N-terminal kinase domain (RPS6KA4, Homo sapiens, UniProt O75676); cell-free assay, competition with immobilised ligand).
For Serine/threonine-protein kinase VRK2 (VRK2, Homo sapiens, UniProt Q86Y07); cell-free assay, competition with immobilised ligand: remaining binding read 81%.
The remaining binding was 86% (Protein-tyrosine kinase 6 (PTK6, Homo sapiens, UniProt Q13882); cell-free assay, competition with immobilised ligand).
It gave 72% for remaining binding (Ribosomal protein S6 kinase alpha-6, N-terminal kinase domain (RPS6KA6, Homo sapiens, UniProt Q9UK32); cell-free assay, competition with immobilised ligand).
For Serine/threonine-protein kinase ICK (CILK1, Homo sapiens, UniProt Q9UPZ9); binding, competition with immobilised ligand: remaining binding read 100%.
Serine/threonine-protein kinase PRP4 homolog (PRPF4B, Homo sapiens, UniProt Q13523); cell-free assay, competition with immobilised ligand — remaining binding: 81%.
It gave 100% for remaining binding (Serine/threonine-protein kinase pim-3 (PIM3, Homo sapiens, UniProt Q86V86); cell-free assay, competition with immobilised ligand).

Series 3
Host: mouse
Medium: microsomes or S9
Tested at: 2 µM
Time: 0.5 h
For `CCC(C)NC(=O)Cn1nc(C(=O)N2CCCC2)ccc1=O` (centres unmarked), the remaining compound was 57.1%.
With `Cc1ccc(S(=O)(=O)c2c(O)c3sc4cccc(Cl)c4c3[nH]c2=O)cc1` the remaining compound was 1.54%.
`CN1C(=O)c2[nH]nc(-c3ccccc3)c2C1c1ccco1` (centres unmarked) gave a remaining compound of 16.7%.
With `Cc1cc(C)c(S(=O)(=O)NCc2nc(N)n(S(=O)(=O)c3c(C)cc(C)cc3C)n2)c(C)c1` the remaining compound was 5.69%.
`Fc1ccc(-c2ccnc3nc(-c4ccncc4)nn23)cc1` has a remaining compound of 42.6%.
With `COc1cc2c(Nc3ccc(Br)cc3F)ncnc2cc1OCCCN1CCOC(CO)C1` (centres unmarked) the remaining compound was 75.8%.
`Cc1cc2c(cc1S(=O)(=O)N(C)CC(=O)N(C)Cc1ccco1)OC(C)C(=O)N2` (centres unmarked) has a remaining compound of 0.559%.
For `COc1ccc(F)c(-c2nc(COc3ccc(-n4cncn4)cc3)c(C)o2)c1`, the remaining compound was 54.1%.
`CCn1ccc2cc(C(=O)N3C[C@@H](CN4C[C@@H](C)O[C@@H](C)C4)[C@@H](CO)C3)ccc21` gave a remaining compound of 36.3%.
The remaining compound of `c1nc(N2CCN(C3CCCCC3)CC2)c2nc[nH]c2n1` is reported as 25.4%.
`COc1ccc(-c2nnc(N(C)C)n2-c2ccc(C)cc2)c(OC)c1` gave a remaining compound of 5.66%.
The remaining compound of `CC(C)NC(=O)CN1C(=O)c2ccccc2N2C(=O)c3ccccc3C12` (centres unmarked) is reported as 79.2%.
`O=C(Cn1nnc(-c2ccc(F)cc2)n1)N[C@H]1C[C@@H]2OCC[C@H]12` gave a remaining compound of 70.2%.

Series 4
Cell line: A-375
Tested at: 100 µM
Time: 36 h
`O=C(OCc1ccccc1)c1ccccc1` has a viability of 52.1%.
For `C[C@]12CC[C@@H]3c4ccc(O)cc4CC[C@H]3[C@@H]1C[C@@H](O)[C@@H]2O`, the viability was 91.4%.
For `CN(C)CCCN1c2ccccc2Sc2ccccc21`, the viability was -0.773%.
For `Cc1c(O)c(=O)n(-c2ccccc2)n1C`, the viability was 125%.
For `Cc1coc2c1C(=O)C(=O)c1c-2ccc2c(C)cccc12`, the viability was 23.3%.

Excerpt of the above (series 4):
For `Cc1coc2c1C(=O)C(=O)c1c-2ccc2c(C)cccc12`, the viability was 23.3%.
For `Cc1c(O)c(=O)n(-c2ccccc2)n1C`, the viability was 125%.
For `C[C@]12CC[C@@H]3c4ccc(O)cc4CC[C@H]3[C@@H]1C[C@@H](O)[C@@H]2O`, the viability was 91.4%.
`O=C(OCc1ccccc1)c1ccccc1` has a viability of 52.1%.
For `CN(C)CCCN1c2ccccc2Sc2ccccc21`, the viability was -0.773%.
